Assay results from different studies.
Protocols differ between the studies behind these lines. In brackets after ≈: the same amount, converted by molar mass.
Organism: Saccharomyces cerevisiae

SMILES	test	system	conditions	how to read	quantity	result
CC1=NNC(=S)NC(=O)C1/N=N/c1ccc(S(N)(=O)=O)cc1 (stereo not shown)			500 µg/mL		glucose uptake	81.6%
NC1=CC2=NCCc3c[nH]c(c32)C1=O	cell growth, liquid culture	BY4741	100 µM, 24 h		inhibition	100%
CCN(CCCS(=O)(=O)O)c1cccc(C)c1	cell growth, OD600 after 22 h	PfPiT-expressing strain	22 h, pH 4.3, 30 °C, with: 12 mM NaH2PO4		IC50	3.7 mM
CO[C@H]1[C@H](O[C@H]([C@H]2O[C@@H](n3ccc(=O)[nH]c3=O)[C@H](O)[C@@H]2O)[C@H](NCCCNC(=O)[C@@H](NC(=O)[C@@H](NC(=O)N[C@H](C(=O)O)C(C)C)[C@@H]2CCN=C(N)N2)[C@@H](OC(=O)CCCCCCCCCCCCN(O)C(=N)N)C(C)C)C(=O)O)O[C@H](CN)[C@H]1O	alamar blue	BY4742			MIC50	> 35 µg/mL
CC1=NN(c2cccc(C)c2)C(=O)C1=NNc1ccc(S(N)(=O)=O)cc1			100 µg/mL		glucose uptake	42.3%
C[C@@H]1[C@H](O)[C@@H](C)/C=C/C=C/C=C/C=C/C=C/C=C/C=C/[C@H](O[C@@H]2O[C@H](C)[C@@H](O)[C@H](N)[C@@H]2O)C[C@@H]2O[C@](O)(C[C@@H](O)C[C@@H](O)[C@H](O)CC[C@@H](O)C[C@@H](O)CC(=O)O[C@H]1C)C[C@H](O)[C@H]2C(=O)O		YPD medium	30 °C		MIC	2 µg/mL (≈ 2.16 µM)
C[S+](C)[O-]	OD600	PfPiT-expressing strain	1 %, 22 h	baseline: untreated strain	growth reduction	~11%
O=C1C(NCCc2c[nH]c3ccccc23)=CC2=NCCc3c[nH]c1c32	cell growth, liquid culture	BY4741	100 µM, 24 h		inhibition	63%
O=C(O)P(=O)(O)O	cell growth, OD600 after 22 h	PfPiT-expressing strain	pH 4.3, 30 °C, with: 12 mM NaH2PO4		IC50	0.14 mM
COC1=CC2=[N+](C)CCc3c[nH]c(c32)C1=O	cell growth, liquid culture	BY4741	100 µM, 24 h		inhibition	4.2%

Some of these lines once more:
SMILES	test	system	conditions	how to read	quantity	result
C[S+](C)[O-]	OD600	PfPiT-expressing strain	1 %, 22 h	baseline: untreated strain	growth reduction	~11%
